# Measurements of several laboratories.
# A part holds a random share of what one study measured. Substitutions count along the parent as printed.
# UniProt Q9C0B0, sequence (30-357, looked up): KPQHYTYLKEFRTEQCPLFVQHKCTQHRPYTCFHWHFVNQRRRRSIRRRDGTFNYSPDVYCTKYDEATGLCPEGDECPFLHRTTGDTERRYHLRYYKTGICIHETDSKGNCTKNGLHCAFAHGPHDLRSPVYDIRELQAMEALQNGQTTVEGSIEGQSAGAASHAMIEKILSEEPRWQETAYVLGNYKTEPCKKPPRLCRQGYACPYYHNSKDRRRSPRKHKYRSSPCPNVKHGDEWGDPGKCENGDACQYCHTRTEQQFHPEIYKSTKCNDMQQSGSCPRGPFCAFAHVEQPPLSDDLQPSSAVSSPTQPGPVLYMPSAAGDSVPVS

# Set 1
# Target: CCNB2, cyclin fold, Cln2 fusion (human)
# Technique: yeast growth competition, sequencing
# Matrix: yeast
# Setting: weak parent motif
# Baseline: not given
# Direction: higher = stronger binding
# Starting sequence: INSM1 docking peptide (human); PKAIRKLHFEDEV
Change,normalised enrichment score
PKAIRKNHFEDEV [L7N],0.0128
PKAIRKLHFECEV [D11C],0.585
PKAIRKLQFEDEV [H8Q],0.455
PKAIRKLHREDEV [F9R],0.0714
PKAIRKLHCEDEV [F9C],0.0277
PKAIRKLHFETEV [D11T],-0.559
PKFIRKLHFEDEV [A3F],0.271
PKAIRKLHFEQEV [D11Q],0.332
PKAIRKVHFEDEV [L7V],0.468
PKAIRKLHFEDTV [E12T],0.24
PKAIKKLHFEDEV [R5K],0.141
PKAIRKLHFEIEV [D11I],0.575
PKAIRKLHFEDCV [E12C],0.359
PKAIRKLHFEDSV [E12S],0.302
PKAIRKLHNEDEV [F9N],0.16
PKAIRVLHFEDEV [K6V],0.0997
PKAIDKLHFEDEV [R5D],-0.479
PKAIRKSHFEDEV [L7S],0.619

# Set 2
# Target: Histone acetyltransferase KAT6A, winged helix 1, GST fusion (KAT6A, Homo sapiens, UniProt Q92794, residues 1-85)
# Technique: protein binding microarray
# Form: double-stranded DNA, one strand shown
# Matrix: in vitro
# Concentration: not given
# Setting: 8-mer, flanks averaged, mean of 2 arrays, mostly near background
# Baseline: not given
# Direction: higher = stronger binding
# Target sequence (chain): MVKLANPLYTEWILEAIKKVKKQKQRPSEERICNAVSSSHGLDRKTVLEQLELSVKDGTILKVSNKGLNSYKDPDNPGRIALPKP
Oligonucleotide,E-score
CTTGATAA,-0.15
AGGTACCC,-0.0955
ACTTGCCA,-0.172
ATAGTTAC,-0.00105
CATTTCTC,-0.0687
ATAGGGGA,-0.136
ATCCAATG,-0.178
GCGGAACC,0.312
CCCTCTGA,-0.0998
CTAGACCC,-0.0368
AGATCACC,-0.0741
CCTAGCGC,0.246
CGGTTTAC,0.194
AAGCATAA,-0.134
AATCCGAC,0.231
TGAATGAA,-0.242
CTGAATAA,-0.147
ATGGTCCG,0.159
CATCTTCG,0.0413
AGAGACGA,-0.0146
CCCCCCAA,-0.167
GAGTCGCA,-0.0499
ATATATCA,-0.199

# Set 3
# Target: RNA binding protein fox-1 homolog 2, RRM domain, GST-SBP tag (RBFOX2, Homo sapiens, UniProt O43251-10, residues 100-194)
# Technique: RNA Bind-n-Seq
# Form: RNA
# Matrix: in vitro
# Concentration: 365 nM
# Setting: natural RNA segment, single round, ends assumed
# Baseline: no-protein control
# Direction: higher = stronger binding
# Target sequence (chain): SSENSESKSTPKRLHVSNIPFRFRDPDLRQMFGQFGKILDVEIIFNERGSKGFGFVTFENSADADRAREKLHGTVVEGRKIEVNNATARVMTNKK
Oligonucleotide,RBNS enrichment (R)
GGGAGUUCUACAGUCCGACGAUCUCGUCUUUGUUUCAGUUAAGCUCAAUGGCGAACAUGGGAACCACCUUUCGCCUUCCCUGGGGGAGAAACCCUCUUGGCUGAUGGCUUUUCCCCGGAAUUAUCAAACAGCCUGGAAUUCUCGGGUGCCAA,0.3
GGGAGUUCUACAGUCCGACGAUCAGAAACAAUUUAACAUGUUGAAACGACAAUAUUCUAAAAUACUGAUGAAUCUUGCAUCAAUAUAAUUAUUGGGUUUUUUUUCUUUUUCCUGCUGUAUAACUCCUUGCCAUUGGAAUUCUCGGGUGCCAA,0.326
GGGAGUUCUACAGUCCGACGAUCGGGACUAUGGGAGAAUACUUUACUGUGAGUGGAAAAUGUUAGCACAUUUGACUGGUUUGCCCUGGAAUCCACUGCACCUUUACACUGCACCAUGAAACCUACACUCCCUGUGGAAUUCUCGGGUGCCAA,0.757
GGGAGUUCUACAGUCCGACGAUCCUUGCAUUGACAUGUUUCCUUUUGAAAUGAGGUAAUCAAUUAGGUGGGGAAAAAAAUGUUCUCGACUGAUACUUGUAUAUCGGGUGCAUUUAAUGGCAGUCACAACUCUGUGGAAUUCUCGGGUGCCAA,0.331
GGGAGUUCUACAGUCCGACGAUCGCUGUACUCAUUGGUAGUUUCAGUAUAUGUAAUGUGAGUUUAAAUAGUGAAAUUGUAUCUCAUAUUAACAUUUCAAAUGCUCAUAUUGAAAAUGGAAAAUAGUAAACACGUGGAAUUCUCGGGUGCCAA,0.448
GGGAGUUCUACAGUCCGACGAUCACAUAACCAUCUGGAGUGUGUCCAGUUUAUUUUUCAUAGGACCAAUUUUUAUUUGCAGCUUAGGUUUUUAUAUGAAGUUGCAUUAUUGUGGACUUGGCUGUCUUGUGAUGUGGAAUUCUCGGGUGCCAA,2.07
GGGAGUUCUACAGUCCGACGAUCUGCAGCCCCUGGAAAAGAAGAGACAGCCAUAGACGAGGAGCCAGAGUGGGGGCAGACUGGCCAUUUUUAUUUUGAAGUUCCUGCGAGAAAUGGAUGGUGGAAGGGUGGCGUGGAAUUCUCGGGUGCCAA,1.11
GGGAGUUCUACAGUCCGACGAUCCAGAGGAUCCGGAUCUCAGAGCCUGAGACCAGGUUUAUUGGGGCCUGGCCUGUCCUCUAAGUCAAGUUUAGGAAAACAAGGAUAAGAUUCUGUCAUAGGCAUAGAGAGUUUGGAAUUCUCGGGUGCCAA,0.437
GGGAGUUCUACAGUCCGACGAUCGGCUCUACUUAGCACACGCACAGUGGCACUAGGACCUGCGUGCCUGGCCCUCAGUGGGUAGGGCGGUGCUGCCUAGGCACACAGCAGCGCUUACGGGCCCCAGGUGCCUAUGGAAUUCUCGGGUGCCAA,0.297
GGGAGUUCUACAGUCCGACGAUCGGUUUUUUGAGAUGAAGCAUUUGUUACAGAUAAUUGGGUAGAGUGGAGUGUAUCUGCUUAAGGGGUGAAGUUUGUUUUUUCUUGUCUCUGAAAACUAAGCCCUCAAUGAAUGGAAUUCUCGGGUGCCAA,2.92
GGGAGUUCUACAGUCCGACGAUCCUGAGAUAAGCUUAGCACUUGAGUUGUACAACAGAACACUUGUACAAAAUAGAUUUUAAGGCUAACUUCUUUUCACUGUUGUGCUCCUUUGCAAAAUGUAUGUUACAAUAUGGAAUUCUCGGGUGCCAA,3.45
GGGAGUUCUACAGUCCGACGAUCCUAGUCUCAGGGGCUCCAACAUCCGCCCUUGACCUUGGCUGGCACUGUAUGCAUGUAGUGCACAAACACGUGACGGAGGAACACAUAAAAGGCUUGUAUGUGUUAUCAUUUGGAAUUCUCGGGUGCCAA,14.7

# Set 4
# Target: ABI1, truncated, D143A, DHFR fusion (Arabidopsis thaliana)
# Technique: DHFR PCA, deep sequencing
# Matrix: yeast
# Setting: methotrexate growth selection, single substitutions
# Together with: (+)-ABA 0.11 µM
# Baseline: wild-type fitted maximum
# Direction: higher = stronger binding
# Starting sequence: PYL1, truncated, DHFR fusion (Arabidopsis thaliana); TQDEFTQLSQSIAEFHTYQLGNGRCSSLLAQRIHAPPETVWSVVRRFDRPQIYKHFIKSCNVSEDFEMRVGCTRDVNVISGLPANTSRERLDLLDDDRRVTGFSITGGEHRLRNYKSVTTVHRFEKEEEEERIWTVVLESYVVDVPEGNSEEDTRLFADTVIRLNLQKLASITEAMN; partner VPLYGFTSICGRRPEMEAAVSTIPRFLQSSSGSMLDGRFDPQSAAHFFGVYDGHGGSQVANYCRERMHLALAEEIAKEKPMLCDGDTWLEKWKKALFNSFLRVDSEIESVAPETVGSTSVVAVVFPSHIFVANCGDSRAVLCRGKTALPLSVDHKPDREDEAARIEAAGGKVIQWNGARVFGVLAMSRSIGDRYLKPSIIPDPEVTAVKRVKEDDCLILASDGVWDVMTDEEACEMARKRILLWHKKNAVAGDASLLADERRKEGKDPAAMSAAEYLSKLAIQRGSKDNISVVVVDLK
Change,relative binding score [%]
V142K,-8.65
F66K,13.1
R45P,-4.8
S87L,35.9
S171H,40.4
L91Q,-5.6
L112D,1.95
V161A,6.78
A13E,45
G102F,-5.61
D96C,-3.19
K168E,-0.53
N114S,-2.04
T86P,3.91

# Set 5
# Target: Interferon regulatory factor 7, full length, phosphomimetic (IRF7, Homo sapiens, UniProt Q92985, residues 1-503, S471D/S472D/S475D/S476D/S477D/S483D/S484D/S487D)
# Technique: protein-binding microarray
# Form: double-stranded DNA, one strand shown
# Matrix: in vitro
# Concentration: 2200 nM top
# Setting: 60-bp whole probe
# Together with: salmon DNA 0.4 mg/ml
# Baseline: random background probes
# Direction: higher = stronger binding
# All sequences stand within: GCCTAGCAC … GTCTTGATTCGCTTGACGCTGCTG
# Target sequence (chain): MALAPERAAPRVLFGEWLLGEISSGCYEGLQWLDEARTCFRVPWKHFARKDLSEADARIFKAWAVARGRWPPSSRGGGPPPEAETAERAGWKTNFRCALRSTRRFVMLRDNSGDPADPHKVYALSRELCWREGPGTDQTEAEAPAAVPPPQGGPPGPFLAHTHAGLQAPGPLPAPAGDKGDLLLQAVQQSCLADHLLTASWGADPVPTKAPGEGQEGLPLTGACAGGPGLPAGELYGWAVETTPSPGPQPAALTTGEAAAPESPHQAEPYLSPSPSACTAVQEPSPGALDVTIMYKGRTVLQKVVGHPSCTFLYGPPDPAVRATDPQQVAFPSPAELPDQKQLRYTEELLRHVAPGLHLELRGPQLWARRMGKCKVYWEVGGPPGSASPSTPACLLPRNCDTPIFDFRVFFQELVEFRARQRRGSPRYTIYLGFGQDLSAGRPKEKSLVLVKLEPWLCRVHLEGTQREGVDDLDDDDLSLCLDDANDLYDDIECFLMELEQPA
Oligonucleotide,fitted relative affinity
GACAATATCGGGTATCGAGACGTGCTA,-0.126 z-score
CCAAGTTTATACCTTAGGTTGTGCTAG,0.321 z-score
GGGTCACTCAATCTCAACAGGTGCTAG,0.061 z-score
TCAAGTATGTTCCTTATTACTGTGCTA,1.18 z-score
TTAGAACTGGGGTTTCTATTAGTGCTA,0.431 z-score
GACGAGATCAGACTGGAGACGTGCTAG,-0.324 z-score
GGTGATTTCAGTTTTCTTTTGTGCTAG,4.01 z-score
GACGGTTTCGGGACGGGGGACGTGCTA,4.68 z-score
TTAGAACTGTGGTTTCGATTAGTGCTA,3.31 z-score
GACGGTATCGTGACTGGGGACGTGCTA,-0.303 z-score
TTAGATTTCAGTCTCTATTAGTGCTAG,0.873 z-score
GTGACTCTGAACCTTGGGCTGTGCTAG,0.113 z-score
GACGATATCAGTCTCGAGATGTGCTAG,0.379 z-score
GACGCTATCGGGTATCGAGACGTGCTA,0.122 z-score
CTTTCTTTACTTCACTCTCTGTGCTAG,2.31 z-score
GACGATTTCGGGTATCGAGATGTGCTA,2.86 z-score
TTAGGACTGGGTATCTGTTAGTGCTAG,-0.25 z-score
TTAGGTATCCGACTGCTTTAGTGCTAG,0.302 z-score
GACGGAATCGGTTTCGGGACGTGCTAG,4.56 z-score
GACGGTCTCCTTCTGCTGACGTGCTAG,0.683 z-score
TTAGATCTCAGACGGGATTAGTGCTAG,-0.153 z-score
GACGGTATCGGCACTGGGGACGTGCTA,-0.675 z-score
TCATTTCTCTTTCACTAACTGTGCTAG,4.07 z-score

# Single results of other studies
Oligonucleotide,target,assay,test system,setting,how to read,quantity,value
GGGAGUUCUACAGUCCGACGAUCAGCAACUCAAGGAUUGAGGACUGGUUUUACAAAUAUACCAAGCCGAUAUGGAACUAAUAACCGAAUUGGACAACCAAGACCAUGACCGACUCUAACUUAUUUUUAUAAGGAAUAUUGACUCAACAGAGGAUUGAGCAUCA,"RING finger protein unkempt homolog, zinc fingers 1-6, SBP tag (UNK, Homo sapiens, UniProt Q9C0B0, residues 30-357)",RNA Bind-n-Seq,"RNA, in vitro","100 nM, RNA with constant flanks, ends assumed","baseline: input RNA pool, higher = stronger binding",bound/input enrichment,0.236 ratio

# Repeated from above (set 5):
Oligonucleotide,fitted relative affinity
TTAGATTTCAGTCTCTATTAGTGCTAG,0.873 z-score
CTTTCTTTACTTCACTCTCTGTGCTAG,2.31 z-score
TCAAGTATGTTCCTTATTACTGTGCTA,1.18 z-score
GGGTCACTCAATCTCAACAGGTGCTAG,0.061 z-score
TTAGAACTGTGGTTTCGATTAGTGCTA,3.31 z-score
TTAGATCTCAGACGGGATTAGTGCTAG,-0.153 z-score
GACAATATCGGGTATCGAGACGTGCTA,-0.126 z-score
TTAGGACTGGGTATCTGTTAGTGCTAG,-0.25 z-score
GACGATATCAGTCTCGAGATGTGCTAG,0.379 z-score
